Assay results gathered from unrelated publications.
Parts stem from different laboratories: compare values within a part only. Changes are numbered by the printed parent chain.
Chain of UniProt Q9XED8 (whole entry, looked up): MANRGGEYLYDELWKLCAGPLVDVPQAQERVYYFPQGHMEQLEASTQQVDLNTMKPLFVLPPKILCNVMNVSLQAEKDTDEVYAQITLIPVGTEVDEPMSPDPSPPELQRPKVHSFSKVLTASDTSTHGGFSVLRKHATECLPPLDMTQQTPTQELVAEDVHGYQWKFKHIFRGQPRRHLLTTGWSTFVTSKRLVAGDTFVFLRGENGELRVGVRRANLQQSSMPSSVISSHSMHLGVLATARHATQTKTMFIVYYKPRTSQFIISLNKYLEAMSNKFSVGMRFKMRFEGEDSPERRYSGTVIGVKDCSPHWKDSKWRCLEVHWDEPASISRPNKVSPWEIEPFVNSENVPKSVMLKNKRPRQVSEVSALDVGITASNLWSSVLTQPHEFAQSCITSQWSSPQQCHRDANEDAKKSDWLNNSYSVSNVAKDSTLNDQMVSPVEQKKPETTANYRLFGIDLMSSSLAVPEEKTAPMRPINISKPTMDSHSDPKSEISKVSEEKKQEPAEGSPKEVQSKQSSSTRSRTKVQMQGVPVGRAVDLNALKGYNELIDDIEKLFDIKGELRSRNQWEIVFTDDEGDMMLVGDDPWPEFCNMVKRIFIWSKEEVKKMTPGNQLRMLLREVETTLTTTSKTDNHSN
Chain of UniProt Q9LQE8 (whole entry, looked up): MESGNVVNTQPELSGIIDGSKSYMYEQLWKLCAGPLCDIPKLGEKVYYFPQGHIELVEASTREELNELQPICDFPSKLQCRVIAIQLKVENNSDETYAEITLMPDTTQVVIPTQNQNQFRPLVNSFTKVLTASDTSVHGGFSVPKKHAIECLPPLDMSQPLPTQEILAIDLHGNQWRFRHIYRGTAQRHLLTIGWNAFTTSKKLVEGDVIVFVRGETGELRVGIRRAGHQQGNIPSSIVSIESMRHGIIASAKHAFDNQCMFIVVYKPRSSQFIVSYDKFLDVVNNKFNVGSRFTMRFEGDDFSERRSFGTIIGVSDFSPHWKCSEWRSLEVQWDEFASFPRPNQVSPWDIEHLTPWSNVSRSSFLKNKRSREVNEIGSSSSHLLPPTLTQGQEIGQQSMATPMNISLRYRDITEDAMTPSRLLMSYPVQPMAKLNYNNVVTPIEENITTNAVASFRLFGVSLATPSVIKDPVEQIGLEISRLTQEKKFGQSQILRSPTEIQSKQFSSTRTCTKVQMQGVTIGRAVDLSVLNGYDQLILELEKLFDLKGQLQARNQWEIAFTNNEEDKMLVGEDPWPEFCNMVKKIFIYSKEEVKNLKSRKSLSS
Chain of UniProt P93022 (whole entry, looked up): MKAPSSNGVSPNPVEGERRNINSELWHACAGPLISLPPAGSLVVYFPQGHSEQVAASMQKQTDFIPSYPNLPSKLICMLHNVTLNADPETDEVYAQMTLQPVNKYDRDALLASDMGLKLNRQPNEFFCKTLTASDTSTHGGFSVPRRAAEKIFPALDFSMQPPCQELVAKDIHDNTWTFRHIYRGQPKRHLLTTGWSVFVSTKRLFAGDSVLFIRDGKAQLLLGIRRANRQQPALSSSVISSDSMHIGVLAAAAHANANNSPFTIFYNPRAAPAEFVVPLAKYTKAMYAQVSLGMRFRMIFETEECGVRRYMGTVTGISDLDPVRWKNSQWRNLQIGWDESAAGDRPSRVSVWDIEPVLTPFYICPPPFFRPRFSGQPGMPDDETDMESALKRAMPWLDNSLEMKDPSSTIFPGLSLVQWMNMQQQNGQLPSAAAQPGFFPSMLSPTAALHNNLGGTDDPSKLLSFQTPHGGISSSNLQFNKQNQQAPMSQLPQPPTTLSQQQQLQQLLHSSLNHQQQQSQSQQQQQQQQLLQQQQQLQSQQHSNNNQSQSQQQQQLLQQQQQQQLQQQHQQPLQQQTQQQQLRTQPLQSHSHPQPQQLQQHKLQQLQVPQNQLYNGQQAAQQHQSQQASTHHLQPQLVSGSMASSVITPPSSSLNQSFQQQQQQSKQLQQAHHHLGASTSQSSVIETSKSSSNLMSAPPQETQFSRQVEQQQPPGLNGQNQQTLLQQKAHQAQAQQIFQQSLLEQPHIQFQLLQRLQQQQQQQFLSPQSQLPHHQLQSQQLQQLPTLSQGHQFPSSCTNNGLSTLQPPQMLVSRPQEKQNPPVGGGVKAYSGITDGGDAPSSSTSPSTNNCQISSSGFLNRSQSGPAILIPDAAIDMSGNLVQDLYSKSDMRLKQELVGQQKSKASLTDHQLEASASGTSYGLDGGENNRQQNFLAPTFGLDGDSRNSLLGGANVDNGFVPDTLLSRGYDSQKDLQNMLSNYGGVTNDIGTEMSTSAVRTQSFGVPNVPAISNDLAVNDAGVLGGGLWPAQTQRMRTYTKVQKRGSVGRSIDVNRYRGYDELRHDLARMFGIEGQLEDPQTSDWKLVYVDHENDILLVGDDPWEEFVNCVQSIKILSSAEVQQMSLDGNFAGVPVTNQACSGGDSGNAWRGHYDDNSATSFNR
Chain of UniProt Q9ZTX9 (whole entry, looked up): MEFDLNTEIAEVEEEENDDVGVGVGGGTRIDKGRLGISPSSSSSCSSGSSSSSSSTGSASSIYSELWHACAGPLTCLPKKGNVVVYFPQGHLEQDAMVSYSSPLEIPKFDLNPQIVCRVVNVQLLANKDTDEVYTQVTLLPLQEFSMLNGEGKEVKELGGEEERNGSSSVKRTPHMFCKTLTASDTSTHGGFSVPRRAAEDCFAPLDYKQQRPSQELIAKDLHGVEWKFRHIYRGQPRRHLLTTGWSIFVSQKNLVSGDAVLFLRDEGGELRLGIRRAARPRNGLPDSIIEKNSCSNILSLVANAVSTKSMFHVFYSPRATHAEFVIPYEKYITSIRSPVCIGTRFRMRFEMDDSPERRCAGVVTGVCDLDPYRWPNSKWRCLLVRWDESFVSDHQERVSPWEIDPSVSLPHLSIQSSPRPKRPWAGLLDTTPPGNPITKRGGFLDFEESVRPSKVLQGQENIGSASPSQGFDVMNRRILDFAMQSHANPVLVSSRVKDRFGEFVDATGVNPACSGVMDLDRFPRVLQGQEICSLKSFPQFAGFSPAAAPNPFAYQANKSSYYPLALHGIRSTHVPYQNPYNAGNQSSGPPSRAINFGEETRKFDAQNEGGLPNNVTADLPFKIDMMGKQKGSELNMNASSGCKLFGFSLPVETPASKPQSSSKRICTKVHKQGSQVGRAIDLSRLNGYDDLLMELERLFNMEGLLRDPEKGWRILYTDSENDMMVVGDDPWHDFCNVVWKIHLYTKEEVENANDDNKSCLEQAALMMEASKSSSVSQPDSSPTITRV
Chain of UniProt Q9C8N7 (whole entry, looked up): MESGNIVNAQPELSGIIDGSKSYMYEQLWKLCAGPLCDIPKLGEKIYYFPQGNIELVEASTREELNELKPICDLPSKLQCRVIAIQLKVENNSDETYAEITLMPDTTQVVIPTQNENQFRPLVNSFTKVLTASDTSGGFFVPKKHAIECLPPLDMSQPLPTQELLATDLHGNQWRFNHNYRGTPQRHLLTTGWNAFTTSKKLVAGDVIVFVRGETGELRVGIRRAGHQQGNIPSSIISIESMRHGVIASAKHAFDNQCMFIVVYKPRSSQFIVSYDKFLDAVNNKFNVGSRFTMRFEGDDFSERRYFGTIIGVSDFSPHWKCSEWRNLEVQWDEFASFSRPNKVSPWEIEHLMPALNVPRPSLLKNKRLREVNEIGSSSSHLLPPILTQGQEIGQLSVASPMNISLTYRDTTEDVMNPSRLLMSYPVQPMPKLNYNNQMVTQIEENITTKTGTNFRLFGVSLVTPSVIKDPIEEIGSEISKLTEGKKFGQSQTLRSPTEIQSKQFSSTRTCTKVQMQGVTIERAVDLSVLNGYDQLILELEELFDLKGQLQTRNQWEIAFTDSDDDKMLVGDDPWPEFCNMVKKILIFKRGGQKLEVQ
Chain of UniProt O23661 (whole entry, looked up): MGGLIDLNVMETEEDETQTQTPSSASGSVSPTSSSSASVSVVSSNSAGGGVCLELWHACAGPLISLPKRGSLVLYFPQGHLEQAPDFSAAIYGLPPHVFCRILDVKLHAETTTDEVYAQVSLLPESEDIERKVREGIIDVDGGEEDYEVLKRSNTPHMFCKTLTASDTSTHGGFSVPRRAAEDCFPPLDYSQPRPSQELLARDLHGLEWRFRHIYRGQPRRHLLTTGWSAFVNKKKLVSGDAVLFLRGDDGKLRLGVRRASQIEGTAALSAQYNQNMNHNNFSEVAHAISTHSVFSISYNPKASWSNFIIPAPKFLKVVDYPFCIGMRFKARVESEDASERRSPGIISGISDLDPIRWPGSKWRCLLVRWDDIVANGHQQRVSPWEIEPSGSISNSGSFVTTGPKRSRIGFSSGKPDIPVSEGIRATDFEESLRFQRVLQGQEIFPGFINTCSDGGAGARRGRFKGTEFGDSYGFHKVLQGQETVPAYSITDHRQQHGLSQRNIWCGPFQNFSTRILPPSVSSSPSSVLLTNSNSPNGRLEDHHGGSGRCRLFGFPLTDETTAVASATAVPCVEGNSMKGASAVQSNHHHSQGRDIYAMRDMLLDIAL

Sample 1 — Molecule: B1 (IAA17); method: two-hybrid; direction: higher = firmer interaction
B1: IAA17 (Arabidopsis thaliana, UniProt P93830); chain MMGSVELNLRETELCLGLPGGDTVAPVTGNKRGFSETVDLKLNLNNEPANKEGSTTHDVVTFDSKEKSACPKDPAKPPAKAQVVGWPPVRSYRKNVMVSCQKSSGGPEAAAFVKVSMDGAPYLRKIDLRMYKSYDELSNALSNMFSSFTMGKHGGEEGMIDFMNERKLMDLVNSWDYVPSYEDKDGDWMLVGDVPWPMFVDTCKRLRLMKGSDAIGLAPRAMEKCKSRA
partner	setting	scale	positive tests
ARF14 497-605 (Arabidopsis thaliana, UniProt Q9LQE8)		baseline: out of 2 tests	0
ARF2 727-859 (Arabidopsis thaliana, UniProt Q94JM3)		baseline: out of 4 tests	0
ARF9 519-638 (Arabidopsis thaliana, UniProt Q9XED8)	weak activation fusion	baseline: out of 4 tests	2
ETT (Arabidopsis thaliana, UniProt O23661)		baseline: out of 2 tests	0
ARF22 498-598 (Arabidopsis thaliana, UniProt Q9C8N7)		baseline: out of 2 tests	1
ARF4 660-788 (Arabidopsis thaliana, UniProt Q9ZTX9)		baseline: out of 4 tests	2
ARF7 1030-1164 (Arabidopsis thaliana, UniProt P93022)		baseline: out of 4 tests	3

Sample 2 — target: CCNE2, cyclin fold, Cln2 fusion (human); method: yeast growth competition, sequencing; medium: yeast; setting: weak parent motif; baseline: not given; direction: higher = stronger binding
Parent: BORA docking peptide (human); SSLRRKLFLDGNG; partner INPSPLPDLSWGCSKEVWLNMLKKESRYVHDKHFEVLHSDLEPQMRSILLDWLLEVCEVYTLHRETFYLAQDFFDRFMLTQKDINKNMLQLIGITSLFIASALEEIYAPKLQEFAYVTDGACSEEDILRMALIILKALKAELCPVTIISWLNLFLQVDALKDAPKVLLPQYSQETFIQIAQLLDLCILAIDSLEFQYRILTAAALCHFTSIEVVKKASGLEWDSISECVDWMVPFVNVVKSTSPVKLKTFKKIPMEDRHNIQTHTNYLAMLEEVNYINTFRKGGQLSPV
Variant	normalised enrichment score
SSLRKKLLLDGNG [R5K F8L]	0.588
SSLRRKLFLDGNA [G13A]	0.526
SSLRAKLFLDGNG [R5A]	0.578
SSARRKLFLDGNG [L3A]	3.08
SALRRKLFLDGNG [S2A]	1.03
SSLRKKLFFDGNG [R5K L9F]	1.06
SSLRRKLALDGNG [F8A]	0.835
SSLRRKLFADGNG [L9A]	-0.0955
SSLRRKLFLAGNG [D10A]	0.363
SSLRRKLFFDGNG [L9F]	1.32

Sample 3 — method: protein-binding microarray; form: double-stranded DNA, one strand shown; medium: in vitro; concentration: 2200 nM top; setting: 60-bp whole probe; with: salmon DNA 0.4 mg/ml; baseline: random background probes; direction: higher = stronger binding; shared flanks, not repeated: GCCTAGCAC … GTCTTGATTCGCTTGACGCTGCTG
Target: Interferon regulatory factor 7, full length, phosphomimetic (IRF7, Homo sapiens, UniProt Q92985, residues 1-503, S471D/S472D/S475D/S476D/S477D/S483D/S484D/S487D)
Chain of UniProt Q92985 (whole entry, unmodified, looked up): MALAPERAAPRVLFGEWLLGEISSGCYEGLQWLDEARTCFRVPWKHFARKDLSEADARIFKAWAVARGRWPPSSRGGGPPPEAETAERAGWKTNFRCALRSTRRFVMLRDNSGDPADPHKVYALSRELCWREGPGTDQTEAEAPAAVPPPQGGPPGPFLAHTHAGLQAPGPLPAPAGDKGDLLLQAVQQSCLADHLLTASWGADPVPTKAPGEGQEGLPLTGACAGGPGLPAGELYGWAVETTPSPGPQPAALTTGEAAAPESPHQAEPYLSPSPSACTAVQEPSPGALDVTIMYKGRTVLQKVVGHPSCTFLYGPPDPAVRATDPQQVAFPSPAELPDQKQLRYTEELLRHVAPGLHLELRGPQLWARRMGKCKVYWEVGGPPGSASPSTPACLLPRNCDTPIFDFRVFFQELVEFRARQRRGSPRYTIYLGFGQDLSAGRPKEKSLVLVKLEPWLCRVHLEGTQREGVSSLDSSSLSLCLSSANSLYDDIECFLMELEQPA
Oligonucleotide	fitted relative affinity [z-score]
GACGATTTCAGTCTCGAGACGTGCTAG	0.933
TTAGGTATCGACTTTCAGTTAGTGCTA	1.65
GACGATCTCCTTCTCCTGACGTGCTAG	1.17
GACGGACTGGACATTGGGGACGTGCTA	-0.824
TCAGGTATCGGGTATCGGTTAGTGCTA	1.33
GACGATCTCAGTCCCGAGACGTGCTAG	0.529
TCATCTTGCAGTATGGAACTGTGCTAG	1.3
TTAGGGTCCCTTTTCCTTTAGTGCTAG	1.63
TTAGGTTTCGGTAGCGGTTAGTGCTAG	3.08
GACGGTTTCCTTCTCCTGAGGTGCTAG	2.65
TTAGGTATCCTTTTCCTTAAGTGCTAG	1.27
TTAGTTTTCCTTTTCCTTTAGTGCTAG	9.36
TTAAATATCAGTCTCGATTAGTGCTAG	0.0476
GACGGACTGCTTTTGCTGACGTGCTAG	0.0986
TCAACTTGGAATTTCCCACTGTGCTAG	0.829
GACGGACTGGGGACTGGGGAAGTGCTA	-0.593
GACGTTCTCAGACTGGAGACGTGCTAG	0.102
GCGGGAGAAAGCAAGCCCAGGTGCTAG	-0.807
GACGGTTTCGGGTCTCGGGACGTGCTA	8.11
TTAGATTCCAGTTTCGATTGGTGCTAG	9.42
GTCGGTATCGGTTTCGGGACGTGCTAG	4.67
TTAGAACTGCGTATCGATTAGTGCTAG	-0.242

Sample 4 — method: RNA Bind-n-Seq; form: RNA; medium: in vitro; concentration: 365 nM; baseline: no-protein control; direction: higher = stronger binding
Target: RNA binding protein fox-1 homolog 2, RRM domain, GST-SBP tag (RBFOX2, Homo sapiens, UniProt O43251-10, residues 100-194)
Setting: natural RNA segment, single round, ends assumed
Shared flanks, not repeated: GGGAGUUCUACAGUCCGACGAUC … UGGAAUUCUCGGGUGCCAA
Construct (chain): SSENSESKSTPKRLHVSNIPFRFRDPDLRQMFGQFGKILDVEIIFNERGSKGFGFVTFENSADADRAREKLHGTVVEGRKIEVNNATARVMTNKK
Oligonucleotide	RBNS enrichment (R)
CUGAAGCCUGUGAAUGAUGUCUGGUACACCACAGUGUUUUCUCCAGAGAACUGGCCUAAGCUCUAGAUUAGCCAAGAAAGCUGGAAAACAGAGCGCCAGGCUUCACUCUG	0.323
AGUGCCUCUACUGAAUUAUUCCUCUUUUAAAUGGUUAAUGAACCAAUAAUUUUUAAAUCAUACCAAAAAUAGUAAGAAAAUAUGCAAACACUCUGUGAUCAAACUUAAAA	0.676
AGCCUCCUUACAUUAAAAAGCCUUACAGUUAUCCUGCAAGGGACAGGAAGGUCUGAUUUGCAGGAUUUUUAGAGCAUUAAAAUAACUAUCAGGCAGAAGAAUCUUUCUUC	0.544
AAAUUUUUAAAAAAAGACUUUAACUGCAGUUCCAAAGCUUCUCUAACCCAAAAAUUACAGUACCAAAUGAUUGACUCAGGAUUGUUUUUCCCAUAUUGAUAUGCUGGCAA	0.857
GUUAAGUAUCUGAAGGGAGGGUAGUGUAGAUAGCAAAUGACAGAGACAGUACACACCUAGUGUAUUGUCACUGAAGUCUUAGGUUUAACUUUGACAUCACAGGUCCCUUC	0.313
GUUGUUUUGUUUCCUUCGCCCUUUUCUUCUCUGUGUAAAGGCGAUUCCCUAGACCCAGGAUGGACCCUUCAGUUAUAGAAAUUUGUUUAUGGAACCCGGUGGCUCCCGUC	0.47
CCAGAACCCUCUGCGCCUUGAGAUGAGUCUGCCAUGAGAACUUGCUCACGCUGCAGAGUCUCUGUGGCGUACCUGGGGGCAUUCUAAGUCCAGUGACUUUUGAAAUUCAA	0.232
GGAAAAACUACAAAACAGACACAACAAACCAGAGCCAAGUUUGGGGAACGGGUGUGAGCAGCUCUGGCUCCUGACCCUCACCGGGUCCGCUUUGCCCCAGUGAAGAGACA	0.553
UUGGUCCCUCUAAUGAUCCUCCAGCCUCAUCUAAUGCCCCCCAAAGACUGAUACAAGUAACCUCCCCUCUGCUUAGGUGUCACUUUCUCAGCAUAUCAAGUUUAGGCAGC	0.673
AGGCACAGAUGGGGCCUUGAAACGCUUUGUCAUGCUUCUUCAGUACCAUGGAUUUGAAAUGAACUCAUCCUUGCUGUGAGCAUCCAGGAGCCCUUGAGAAGUUUAUCUAU	0.199
CUGCACUAAUUCCCUUCUUCCUCUAGCAGACUGCCUUGGGAAGGACCUUCAGUCCAGGACAGACCCUGUCAUGGCUUCUUGCUGUCUUACCCUUCUCACUCACCAGGCCC	0.6
CUAUCAGAAGAAAACUGUUGUUUGCCUUUCAACCUUGUUUUACAGUUCUGCAGUGUAAUGGAGGACGGGCAACGUGCAUGUGCAGGCUCACCACUCCCAGGCCUCUGACA	11.8
